Experimental data collected from several papers.
Target: Dipeptidyl peptidase 4 (DPP4, Homo sapiens, UniProt P27487)
Sequence of UniProt P27487 (whole entry, looked up): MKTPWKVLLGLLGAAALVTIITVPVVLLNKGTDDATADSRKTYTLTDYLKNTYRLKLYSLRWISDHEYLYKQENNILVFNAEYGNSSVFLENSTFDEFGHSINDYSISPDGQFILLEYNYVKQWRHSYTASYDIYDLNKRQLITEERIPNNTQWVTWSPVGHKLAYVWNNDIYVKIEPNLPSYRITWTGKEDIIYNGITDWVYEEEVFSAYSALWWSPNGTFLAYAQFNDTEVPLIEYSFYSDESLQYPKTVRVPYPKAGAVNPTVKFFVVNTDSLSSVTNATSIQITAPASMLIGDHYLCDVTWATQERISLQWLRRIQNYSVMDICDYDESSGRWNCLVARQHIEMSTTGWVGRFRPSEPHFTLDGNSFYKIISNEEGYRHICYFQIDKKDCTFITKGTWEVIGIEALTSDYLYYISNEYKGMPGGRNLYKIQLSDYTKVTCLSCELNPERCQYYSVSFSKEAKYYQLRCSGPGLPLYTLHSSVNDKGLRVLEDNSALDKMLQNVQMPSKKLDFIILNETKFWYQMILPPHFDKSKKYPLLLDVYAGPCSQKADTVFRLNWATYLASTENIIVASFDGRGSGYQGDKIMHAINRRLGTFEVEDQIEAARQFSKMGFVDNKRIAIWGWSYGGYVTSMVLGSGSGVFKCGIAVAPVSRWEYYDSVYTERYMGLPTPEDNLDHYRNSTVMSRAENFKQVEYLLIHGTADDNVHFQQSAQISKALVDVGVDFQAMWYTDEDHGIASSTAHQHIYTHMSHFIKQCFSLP
Mode: inhibitor

Cn1c(=O)c(=O)n(C)c2cc(S(=O)(=O)Nc3ccc(S(=O)(=O)Nc4ncccn4)cc3)ccc21  IC50 (enzyme activity, fluorescence): 0.48 nM
CCC1(CC)C(=O)N(c2cccc(CN3CCN(c4cc(C)nc5ccc(Br)cc45)CC3)c2)C1=O  IC50 (cell-free assay): 2700 nM
O=c1c2c(O)cc(O)cc2oc2oc3cc(O)ccc3c12  IC50 (enzyme activity): 45200 nM
N=C(N)NCCC[C@H](NC(=O)[C@H](Cc1ccccc1)NC(=O)CN)C(=O)O  IC50 (enzyme activity, absorbance): 959000 nM
CCNC(=S)NNS(=O)(=O)c1ccc2c(c1)n(C)c(=O)c(=O)n2C  IC50 (enzyme activity, fluorescence): 0.068 nM
COc1cc(/C=C/C(=O)OC[C@H]2O[C@H](O[C@]3(CO)O[C@H](CO)[C@@H](O)[C@@H]3OC(=O)/C=C/c3ccc(O)c(OC)c3)[C@H](O)[C@@H](O)[C@@H]2O)ccc1O  IC50 (enzyme activity): 46200 nM
N[C@@H](CC(=O)N/N=C/c1ccc(F)c(F)c1)Cc1cc(F)c(F)cc1F  IC50 (enzyme activity): 5080 nM
Cn1c(=O)c(=O)n(C)c2cc(S(=O)(=O)NNC(=S)Nc3ccccc3)ccc21  IC50 (enzyme activity, fluorescence): 0.049 nM
N#C[C@@H]1CCCN1C(=O)CNC(=O)c1ccnc2ccc(/C=C/C(=O)NCc3cn(CCOCCOCCOCCNC(=O)CCCC[C@@H]4SC[C@@H]5NC(=O)N[C@@H]54)nn3)cc12  IC50 (enzyme activity, fluorescence; with preincubation): > 100000 nM
Cc1cc(O)c(C=O)c2c1C(=O)Oc1c(CO)c(O)c3c(c1O2)C(O)OC3=O (stereo not drawn)  IC50 (enzyme activity): 161 nM
Cn1c(=O)c(=O)n(C)c2cc(S(=O)(=O)Nc3ccc(S(=O)(=O)Nc4nccs4)cc3)ccc21  IC50 (enzyme activity, fluorescence): 0.93 nM
COc1ccc(C=NNC(=O)CC(N)Cc2cc(F)c(F)cc2F)cc1OC (stereo not drawn)  IC50 (enzyme activity): 34300 nM

Some of these lines once more:
CCNC(=S)NNS(=O)(=O)c1ccc2c(c1)n(C)c(=O)c(=O)n2C  IC50 (enzyme activity, fluorescence): 0.068 nM
